Measured values pooled from the literature.
Every numbered part comes from another study and shows a few of its results, in no order. Several values in a cell are separate wells, animals, samples, runs or records.
Sequence of UniProt P07949 (whole entry, unmodified, looked up): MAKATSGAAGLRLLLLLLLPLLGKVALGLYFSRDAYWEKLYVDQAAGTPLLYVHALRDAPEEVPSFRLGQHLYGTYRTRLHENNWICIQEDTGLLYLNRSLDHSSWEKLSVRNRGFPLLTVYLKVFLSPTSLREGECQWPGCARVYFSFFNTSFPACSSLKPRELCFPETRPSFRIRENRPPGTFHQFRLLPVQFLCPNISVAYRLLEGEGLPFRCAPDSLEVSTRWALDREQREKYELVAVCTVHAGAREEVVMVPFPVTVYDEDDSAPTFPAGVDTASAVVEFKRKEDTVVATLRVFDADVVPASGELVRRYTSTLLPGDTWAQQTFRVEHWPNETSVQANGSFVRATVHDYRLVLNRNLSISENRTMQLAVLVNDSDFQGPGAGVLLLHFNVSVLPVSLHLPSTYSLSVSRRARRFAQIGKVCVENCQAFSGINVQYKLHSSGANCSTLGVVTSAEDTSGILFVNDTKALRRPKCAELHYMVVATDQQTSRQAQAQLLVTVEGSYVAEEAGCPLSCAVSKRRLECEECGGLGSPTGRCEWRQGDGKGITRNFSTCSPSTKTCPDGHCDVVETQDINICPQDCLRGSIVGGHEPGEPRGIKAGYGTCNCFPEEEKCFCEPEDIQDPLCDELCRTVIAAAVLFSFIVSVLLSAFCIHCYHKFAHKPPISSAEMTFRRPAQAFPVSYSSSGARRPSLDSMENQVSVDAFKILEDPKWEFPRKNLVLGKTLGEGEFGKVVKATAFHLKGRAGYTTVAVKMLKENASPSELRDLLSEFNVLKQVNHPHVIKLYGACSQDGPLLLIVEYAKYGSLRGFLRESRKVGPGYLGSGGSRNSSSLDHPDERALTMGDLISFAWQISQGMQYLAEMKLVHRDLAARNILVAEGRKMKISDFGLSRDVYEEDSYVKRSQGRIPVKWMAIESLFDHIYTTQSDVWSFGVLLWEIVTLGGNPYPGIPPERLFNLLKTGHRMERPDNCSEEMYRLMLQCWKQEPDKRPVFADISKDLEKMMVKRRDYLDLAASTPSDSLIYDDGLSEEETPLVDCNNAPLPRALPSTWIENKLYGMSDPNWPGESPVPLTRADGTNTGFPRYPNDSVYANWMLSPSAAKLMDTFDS
Sequence of UniProt Q16659 (whole entry, looked up): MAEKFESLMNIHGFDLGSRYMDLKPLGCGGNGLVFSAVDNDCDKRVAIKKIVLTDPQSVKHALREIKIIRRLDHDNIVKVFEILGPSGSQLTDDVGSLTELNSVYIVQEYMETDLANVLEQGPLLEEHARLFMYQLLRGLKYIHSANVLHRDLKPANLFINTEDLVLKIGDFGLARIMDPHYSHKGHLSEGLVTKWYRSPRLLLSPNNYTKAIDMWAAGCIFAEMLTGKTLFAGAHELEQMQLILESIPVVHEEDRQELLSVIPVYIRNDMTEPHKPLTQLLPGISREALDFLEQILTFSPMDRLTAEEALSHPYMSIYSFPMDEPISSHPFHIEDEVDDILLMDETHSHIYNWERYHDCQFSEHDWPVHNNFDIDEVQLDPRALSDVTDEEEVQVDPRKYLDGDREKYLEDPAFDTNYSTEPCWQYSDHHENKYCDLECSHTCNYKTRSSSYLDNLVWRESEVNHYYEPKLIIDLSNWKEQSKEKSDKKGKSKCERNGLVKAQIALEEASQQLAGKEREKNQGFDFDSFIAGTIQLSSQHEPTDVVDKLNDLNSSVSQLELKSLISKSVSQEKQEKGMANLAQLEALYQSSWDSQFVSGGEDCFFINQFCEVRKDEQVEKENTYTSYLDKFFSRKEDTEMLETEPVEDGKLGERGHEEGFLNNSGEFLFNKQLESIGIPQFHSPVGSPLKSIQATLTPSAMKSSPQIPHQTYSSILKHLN
Sequence of UniProt P42679 (whole entry, looked up): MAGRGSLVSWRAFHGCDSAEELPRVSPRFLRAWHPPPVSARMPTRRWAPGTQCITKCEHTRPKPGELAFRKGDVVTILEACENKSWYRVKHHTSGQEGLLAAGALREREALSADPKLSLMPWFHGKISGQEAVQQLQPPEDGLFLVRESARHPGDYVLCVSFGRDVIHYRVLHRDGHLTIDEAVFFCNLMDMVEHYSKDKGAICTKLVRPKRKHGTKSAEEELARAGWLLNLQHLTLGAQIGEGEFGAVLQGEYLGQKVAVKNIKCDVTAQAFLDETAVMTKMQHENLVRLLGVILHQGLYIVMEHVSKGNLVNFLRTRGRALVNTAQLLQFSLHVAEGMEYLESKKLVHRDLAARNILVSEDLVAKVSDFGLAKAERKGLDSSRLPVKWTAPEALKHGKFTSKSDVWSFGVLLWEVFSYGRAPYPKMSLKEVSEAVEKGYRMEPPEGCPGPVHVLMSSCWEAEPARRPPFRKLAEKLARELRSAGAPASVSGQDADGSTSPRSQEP

Series 1
Structure (SMILES): Cc1c(NC(=O)c2cc(C(N)=O)nc3cc(F)ccc23)c(C(F)(F)F)nn1Cc1ccc(C#N)cc1
Method: competition with immobilised ligand
Concentration: 1 µM
PKMYT1 (Homo sapiens, UniProt Q99640); cell-free assay — remaining binding: 99%.
For STK38L (Homo sapiens, UniProt Q9Y2H1); binding: remaining binding read 100%.
It gave 75% for remaining binding (EPHB6 (Homo sapiens, UniProt O15197); cell-free assay).
It gave 100% for remaining binding (GSK3A (Homo sapiens, UniProt P49840); cell-free assay).
TEC (Homo sapiens, UniProt P42680); binding — remaining binding: 85%.
It gave 99% for remaining binding (MAP4K3 (Homo sapiens, UniProt Q8IVH8); cell-free assay).
RIPK2 (Homo sapiens, UniProt O43353); cell-free assay — remaining binding: 100%.
FLT3 (Homo sapiens, UniProt P36888, N841I); cell-free assay — remaining binding: 53%.
The remaining binding was 88% (MAPK6 (Homo sapiens, UniProt Q16659); cell-free assay).
It gave 84% for remaining binding (BMPR1A (Homo sapiens, UniProt P36894); binding).
The remaining binding was 100% (RET (Homo sapiens, UniProt P07949, V804M); cell-free assay).
The remaining binding was 96% (EPHB3 (Homo sapiens, UniProt P54753); cell-free assay).
Ribosomal protein S6 kinase alpha-5, C-terminal kinase domain (RPS6KA5, Homo sapiens, UniProt O75582); cell-free assay — remaining binding: 100%.
The remaining binding was 83% (FLT3 (Homo sapiens, UniProt P36888, R834Q); cell-free assay).
It gave 100% for remaining binding (CSNK1G1 (Homo sapiens, UniProt Q9HCP0); cell-free assay).
MATK (Homo sapiens, UniProt P42679); cell-free assay — remaining binding: 66%.
The remaining binding was 92% (PAK5 (Homo sapiens, UniProt Q9P286); cell-free assay).
The remaining binding was 96% (PTK2 (Homo sapiens, UniProt Q05397); cell-free assay).
For CHEK1 (Homo sapiens, UniProt O14757); cell-free assay: remaining binding read 75%.

Series 2
Target: DNA polymerase theta, ATPase domain (POLQ, Homo sapiens, UniProt O75417)
Sequence of UniProt O75417 (whole entry, unmodified, looked up): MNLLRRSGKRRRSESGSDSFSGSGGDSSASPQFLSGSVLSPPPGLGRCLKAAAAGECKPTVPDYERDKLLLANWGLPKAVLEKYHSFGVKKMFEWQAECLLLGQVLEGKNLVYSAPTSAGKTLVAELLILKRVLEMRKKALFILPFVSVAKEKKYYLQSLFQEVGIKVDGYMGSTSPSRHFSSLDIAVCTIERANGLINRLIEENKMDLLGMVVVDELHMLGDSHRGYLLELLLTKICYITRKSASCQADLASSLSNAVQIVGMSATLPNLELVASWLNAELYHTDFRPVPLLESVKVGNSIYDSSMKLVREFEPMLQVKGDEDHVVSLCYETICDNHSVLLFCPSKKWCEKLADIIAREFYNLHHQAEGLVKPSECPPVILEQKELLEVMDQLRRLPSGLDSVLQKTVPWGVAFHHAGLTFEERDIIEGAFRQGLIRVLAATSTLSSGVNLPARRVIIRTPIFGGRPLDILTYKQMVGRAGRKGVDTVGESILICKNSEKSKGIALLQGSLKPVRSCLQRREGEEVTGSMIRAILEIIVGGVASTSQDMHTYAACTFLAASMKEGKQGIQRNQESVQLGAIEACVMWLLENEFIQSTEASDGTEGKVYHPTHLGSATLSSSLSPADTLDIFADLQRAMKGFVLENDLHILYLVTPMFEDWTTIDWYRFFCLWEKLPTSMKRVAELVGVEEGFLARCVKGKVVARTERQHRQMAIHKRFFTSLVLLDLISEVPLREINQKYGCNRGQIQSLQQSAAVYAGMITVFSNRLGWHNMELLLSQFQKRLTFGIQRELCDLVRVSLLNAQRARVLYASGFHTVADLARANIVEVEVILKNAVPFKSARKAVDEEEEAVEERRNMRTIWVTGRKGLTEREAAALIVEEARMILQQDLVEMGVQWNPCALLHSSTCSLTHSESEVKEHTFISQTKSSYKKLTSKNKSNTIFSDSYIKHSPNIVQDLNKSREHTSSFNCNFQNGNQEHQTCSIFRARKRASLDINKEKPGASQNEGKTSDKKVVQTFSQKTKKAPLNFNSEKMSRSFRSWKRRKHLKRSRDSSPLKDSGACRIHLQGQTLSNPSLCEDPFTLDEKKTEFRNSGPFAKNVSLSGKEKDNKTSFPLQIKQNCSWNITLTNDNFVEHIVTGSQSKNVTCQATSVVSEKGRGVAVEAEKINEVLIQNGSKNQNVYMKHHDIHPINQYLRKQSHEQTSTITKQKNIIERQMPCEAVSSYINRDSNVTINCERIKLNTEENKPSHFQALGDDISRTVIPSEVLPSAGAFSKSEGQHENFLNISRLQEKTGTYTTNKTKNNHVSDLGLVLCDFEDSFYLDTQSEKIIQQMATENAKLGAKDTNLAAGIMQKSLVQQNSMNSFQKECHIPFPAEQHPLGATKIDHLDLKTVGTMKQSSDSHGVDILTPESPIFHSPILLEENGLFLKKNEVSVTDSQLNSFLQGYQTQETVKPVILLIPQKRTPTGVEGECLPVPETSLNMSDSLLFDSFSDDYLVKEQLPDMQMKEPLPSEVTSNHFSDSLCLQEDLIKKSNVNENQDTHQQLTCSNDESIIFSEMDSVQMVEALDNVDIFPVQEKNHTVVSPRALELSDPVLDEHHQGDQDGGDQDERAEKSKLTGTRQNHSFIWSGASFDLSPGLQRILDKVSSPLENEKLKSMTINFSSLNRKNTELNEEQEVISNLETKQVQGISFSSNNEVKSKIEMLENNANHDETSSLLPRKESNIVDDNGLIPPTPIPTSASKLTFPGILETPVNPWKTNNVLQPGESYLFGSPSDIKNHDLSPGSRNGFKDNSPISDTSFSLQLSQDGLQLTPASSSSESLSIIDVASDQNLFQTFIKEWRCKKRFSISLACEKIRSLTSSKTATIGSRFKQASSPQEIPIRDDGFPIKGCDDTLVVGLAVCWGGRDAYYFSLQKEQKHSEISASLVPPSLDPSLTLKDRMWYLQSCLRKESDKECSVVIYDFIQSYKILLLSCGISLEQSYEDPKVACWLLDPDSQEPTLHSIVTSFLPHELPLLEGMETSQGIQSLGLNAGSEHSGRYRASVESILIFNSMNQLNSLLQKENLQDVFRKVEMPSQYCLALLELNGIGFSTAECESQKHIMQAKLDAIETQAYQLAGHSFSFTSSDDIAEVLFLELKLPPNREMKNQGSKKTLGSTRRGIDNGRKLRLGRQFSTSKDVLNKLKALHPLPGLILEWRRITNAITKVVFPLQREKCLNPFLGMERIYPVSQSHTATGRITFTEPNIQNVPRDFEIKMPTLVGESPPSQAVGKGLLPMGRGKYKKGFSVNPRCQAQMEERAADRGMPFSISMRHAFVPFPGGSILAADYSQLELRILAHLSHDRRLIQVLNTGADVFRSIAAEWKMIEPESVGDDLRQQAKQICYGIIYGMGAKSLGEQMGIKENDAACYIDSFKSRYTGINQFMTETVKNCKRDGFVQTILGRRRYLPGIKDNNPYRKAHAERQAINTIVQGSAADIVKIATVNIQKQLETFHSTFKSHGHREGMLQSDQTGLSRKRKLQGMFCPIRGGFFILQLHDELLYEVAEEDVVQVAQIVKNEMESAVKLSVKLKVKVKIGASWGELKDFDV
Effect on: enzyme activity
Action: inhibitor
Concentration: 77 µM
Reference: untreated
`c1cnc2cc3c(cc2n1)[C@@H]1CNC[C@H]3C1` gave a remaining activity of 99.7%.
The remaining activity of `C/C(=N\NC(=S)N1CCC1)c1ccccn1` is reported as 82.3%.
For `Nc1nc2c(ncn2COCCO)c(=O)[nH]1`, the remaining activity was 101% and 102% and 95.7%.
With `C[C@@H]1C(=O)NC2=Nc3cccc(Cl)c3CN21` the remaining activity was 108%.

Series 3
Cell line: Huh-7
Concentration: 10 µM
Time: 24 h
For `C#C[C@]1(O)CC[C@H]2[C@@H]3CCc4cc(OC)ccc4[C@H]3CC[C@@]21C`, the viability was 95.1%.
For `CC(=O)CCCCn1c(=O)c2c(ncn2C)n(C)c1=O`, the viability was 102%.
`C=CCc1ccc(O)c(OC)c1` gave a viability of 87.7%.
The viability of `Cc1cc(O)cc(C)c1Cl` is reported as 103%.
The viability of `COC(=O)Nc1nc2ccc([S+]([O-])c3ccccc3)cc2[nH]1` (centres unmarked) is reported as 86.8%.
For `CCOC(=O)C1=C[C@]2(CC)CCCN3CCc4c(n1c1ccccc41)[C@@H]32`, the viability was 97.1%.

Series 4
Species: mouse
Sample: microsomes or S9
Concentration: 2 µM
Time: 0.5 h
With `CCOC(=O)N1CCN(S(=O)(=O)c2c(C)c(C)c(C)c(C)c2C)CC1` the remaining compound was 2.5%.
`CCn1ccc(C(=O)N2CCCN(S(C)(=O)=O)c3ccccc32)n1` has a remaining compound of 11.7%.
For `CCS(=O)(=O)Nc1ccc(C(=O)OC(C)C)cc1`, the remaining compound was < 1%.
`O=C(Nc1ccc(N2CCCS2(=O)=O)cc1)NC1CCCCC1` has a remaining compound of 74.7%.
`NS(=O)(=O)c1ccc(CNc2nc(Cl)nc3[nH]cnc23)cc1` gave a remaining compound of 91%.

Series 5
Cell line: mouse MPNST tumor cells
Method: high-content nuclear imaging
Item: cell number
Concentration: 10 µM
Time: 12 h
Setting: mean of 2 replicates
Reference: plate mean
Direction: higher = more cells
The nuclei count of `CCOc1ccc(NC(C)=O)cc1` is reported as 0.0673 z-score.
With `CCN1CC(CCN2CCOCC2)C(c2ccccc2)(c2ccccc2)C1=O` (centres unmarked) the nuclei count was 0.794 z-score and 0.914 z-score.
`CN[C@H]1CC[C@@H](c2ccc(Cl)c(Cl)c2)c2ccccc21` gave a nuclei count of -5.69 z-score.
`Cc1nc(NC(=O)N2CCCC2C(N)=O)sc1-c1csc(C(C)(C)C)n1` (centres unmarked) gave a nuclei count of 2.92 z-score.

Repeated from above (series 5):
The nuclei count of `CCOc1ccc(NC(C)=O)cc1` is reported as 0.0673 z-score.
With `CCN1CC(CCN2CCOCC2)C(c2ccccc2)(c2ccccc2)C1=O` (centres unmarked) the nuclei count was 0.794 z-score and 0.914 z-score.
`CN[C@H]1CC[C@@H](c2ccc(Cl)c(Cl)c2)c2ccccc21` gave a nuclei count of -5.69 z-score.
`Cc1nc(NC(=O)N2CCCC2C(N)=O)sc1-c1csc(C(C)(C)C)n1` (centres unmarked) gave a nuclei count of 2.92 z-score.
